Measurements from different studies.
Every numbered part comes from another study and shows a few of its results, in no order. Substitutions count along the parent as printed.
UniProt Q9XFM0, sequence (whole entry, looked up): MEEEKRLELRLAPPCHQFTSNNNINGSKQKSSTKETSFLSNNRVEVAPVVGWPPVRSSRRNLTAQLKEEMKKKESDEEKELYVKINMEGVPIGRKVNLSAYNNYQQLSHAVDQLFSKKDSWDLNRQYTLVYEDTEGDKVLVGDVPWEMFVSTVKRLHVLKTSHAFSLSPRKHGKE
UniProt Q8RYC8, sequence (whole entry, looked up): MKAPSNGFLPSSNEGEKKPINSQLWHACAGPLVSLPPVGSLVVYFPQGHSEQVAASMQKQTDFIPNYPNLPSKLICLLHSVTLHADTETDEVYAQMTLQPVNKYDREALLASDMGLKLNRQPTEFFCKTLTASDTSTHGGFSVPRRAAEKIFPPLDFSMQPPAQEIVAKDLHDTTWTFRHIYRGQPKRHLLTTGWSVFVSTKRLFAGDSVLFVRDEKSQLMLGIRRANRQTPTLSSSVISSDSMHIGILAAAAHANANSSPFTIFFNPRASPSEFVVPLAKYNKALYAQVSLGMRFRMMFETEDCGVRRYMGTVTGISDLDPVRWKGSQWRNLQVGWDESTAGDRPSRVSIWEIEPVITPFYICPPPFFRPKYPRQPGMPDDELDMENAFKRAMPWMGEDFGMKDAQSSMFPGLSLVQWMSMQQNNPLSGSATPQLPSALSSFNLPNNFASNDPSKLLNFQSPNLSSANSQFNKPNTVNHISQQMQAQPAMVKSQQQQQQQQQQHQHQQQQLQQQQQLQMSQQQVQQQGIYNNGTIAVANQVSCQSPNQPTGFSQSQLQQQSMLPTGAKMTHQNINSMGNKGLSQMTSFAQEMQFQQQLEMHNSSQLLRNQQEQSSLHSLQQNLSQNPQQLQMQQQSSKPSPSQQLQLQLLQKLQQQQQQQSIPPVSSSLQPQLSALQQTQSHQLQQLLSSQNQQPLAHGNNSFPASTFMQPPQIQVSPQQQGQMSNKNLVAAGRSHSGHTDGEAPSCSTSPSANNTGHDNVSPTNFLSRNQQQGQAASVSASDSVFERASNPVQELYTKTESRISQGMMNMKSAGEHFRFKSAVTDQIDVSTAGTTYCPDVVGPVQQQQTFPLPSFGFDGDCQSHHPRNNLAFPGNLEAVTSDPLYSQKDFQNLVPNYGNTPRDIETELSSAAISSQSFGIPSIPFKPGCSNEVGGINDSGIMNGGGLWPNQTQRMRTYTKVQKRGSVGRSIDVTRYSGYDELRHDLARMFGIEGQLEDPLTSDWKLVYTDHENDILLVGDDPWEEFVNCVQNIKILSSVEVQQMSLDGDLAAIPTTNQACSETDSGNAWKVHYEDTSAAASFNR
UniProt Q8LAL2, sequence (whole entry, looked up): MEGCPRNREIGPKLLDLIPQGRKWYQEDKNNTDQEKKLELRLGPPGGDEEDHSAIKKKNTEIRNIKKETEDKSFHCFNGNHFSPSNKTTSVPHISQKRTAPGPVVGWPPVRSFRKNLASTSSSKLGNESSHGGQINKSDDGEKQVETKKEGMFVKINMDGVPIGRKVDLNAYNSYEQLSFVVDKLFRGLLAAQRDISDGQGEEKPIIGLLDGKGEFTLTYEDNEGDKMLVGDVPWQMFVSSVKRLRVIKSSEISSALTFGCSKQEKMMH
UniProt Q93YR9, sequence (whole entry, looked up): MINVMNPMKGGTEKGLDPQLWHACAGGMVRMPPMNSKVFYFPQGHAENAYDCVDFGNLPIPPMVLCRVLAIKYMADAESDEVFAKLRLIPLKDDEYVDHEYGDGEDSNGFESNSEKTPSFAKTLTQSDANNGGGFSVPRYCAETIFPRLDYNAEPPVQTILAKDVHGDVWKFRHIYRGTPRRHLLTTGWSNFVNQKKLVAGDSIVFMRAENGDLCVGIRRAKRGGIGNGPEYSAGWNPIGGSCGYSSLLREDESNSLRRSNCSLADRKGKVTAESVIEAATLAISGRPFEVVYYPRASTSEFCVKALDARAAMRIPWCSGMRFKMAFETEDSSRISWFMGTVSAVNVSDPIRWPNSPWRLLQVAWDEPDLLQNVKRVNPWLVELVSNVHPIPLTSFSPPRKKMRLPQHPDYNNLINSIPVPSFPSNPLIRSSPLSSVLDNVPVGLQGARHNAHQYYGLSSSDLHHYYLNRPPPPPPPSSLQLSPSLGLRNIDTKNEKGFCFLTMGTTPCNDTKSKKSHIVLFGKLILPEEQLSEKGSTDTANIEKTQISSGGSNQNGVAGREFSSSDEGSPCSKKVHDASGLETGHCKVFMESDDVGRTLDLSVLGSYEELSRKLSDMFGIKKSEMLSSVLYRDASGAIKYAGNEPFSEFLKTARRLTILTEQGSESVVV

Study 1 — method: RNA Bind-n-Seq; molecule type: RNA; medium: in vitro; concentration: not given; baseline: input RNA pool; reading: higher = stronger binding; endpoint: bound/input enrichment
Target: RING finger protein unkempt homolog, zinc fingers 1-6, GST-SBP tag (UNK, Homo sapiens, UniProt Q9C0B0, residues 30-357)
Setting: RNA with constant flanks, human-mouse chimeric sites, ends assumed
Constant ends, left off below: GGGAGUUCUACAGUCCGACGAUC … CAACAGAGGAUUGAGCAUCA
Construct (chain): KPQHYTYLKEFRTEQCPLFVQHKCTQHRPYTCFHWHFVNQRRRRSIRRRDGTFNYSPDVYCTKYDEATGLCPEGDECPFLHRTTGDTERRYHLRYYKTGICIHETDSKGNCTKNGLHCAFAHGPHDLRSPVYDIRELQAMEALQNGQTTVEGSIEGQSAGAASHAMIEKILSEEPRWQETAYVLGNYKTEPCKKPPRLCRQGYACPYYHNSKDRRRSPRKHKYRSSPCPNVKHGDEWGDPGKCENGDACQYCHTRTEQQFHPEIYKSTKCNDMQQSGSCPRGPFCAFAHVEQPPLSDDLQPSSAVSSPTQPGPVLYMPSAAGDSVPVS
ACAGUUAUACACUGUUGUUUCAUUUUCAUAUAUUCUUGUAGUGUCUGCUUGCCUGUGACUUCUGGUAAAAUAAGACUAGCCUUUGAAAAUAUUUUAGCAUGGUAUUUAACAUUUUCUAAA: 7.76 ratio
UUCAAAGAAAAGGGCAGCUGUGUCAUUUCAUAAGUAACUCUGGGGGAGGGAAAUUCUAACUAGUUUGUUUUAGUUUUCCCAAAUGAAGCCAAAGUGUGUGUUGAAGAACUGAGAAAAAAU: 0.758 ratio
UGACAAGGGCACUGCAGAGCCAUGCCUUUCCUUGACAUACAGAAAAAGUUCGGCCUUAGCCUGGACCGGCACUUUAUAAUCCAGAGUGCAGAACAGCCCUAUAAGAACGCCGCUCGGUGC: 0.0743 ratio
CUGUUUUACAGCCACACCAAUCUUGGCAUGUAUUAAGGAAAAAAAAAAUCCCUGUUCAAGUAGUUUUUCCACCUAUCAGCACUGAGUAAAUGCCAUAACUCCGCGGAAAUGGUCUAAAUA: 0.182 ratio
CUGGCCUUCUGAGCAUCAGGGGCCUCCUUUCGUAUAGUCACUGCUUCUGCAUCAGAUACUUUCAGCUGCAACUCCCUACUGGGUGGGGCACCCAUUUGAGGCAGGGUGUUUUGGUACCCU: 0.297 ratio
GCGGCAGAAUCAUGGAGGACAUAAUGCACUUGCCCAGAGCGCGCGUCAACGCCGGCAUGUUACCACAGUAUAUCGACCGGCCCGUGUGCUUCGUGGGGAAGCUGGAAAAGAUUCAUCCCA: 0.0934 ratio
AAAAUAGACUAUGGCGAAUACAUGGAUAAAAACAAUGUGAGGCGGCAAGCAACAACAAUCAUAGCUGAUAACAUUAUAUUUCUGAGUGACCAGACAAAAGAAAAGGCAUAGAACGGAUGA: 3.44 ratio
AAAGCCCAAGUAUUUUGAAAAAACUCGAACAGAUUUGUCAAGGGUAACCAGCUUGGAGUCUAGCAACUUGCCAAUGUGUUUACCAAUCUGGGGGCUUGUUUUUCUUUUCUUCUUUCAAAU: 0.273 ratio

Study 2 — Molecule: B1 (IAA12); method: two-hybrid; reading: higher = firmer interaction; endpoint: positive tests
B1: IAA12 (Arabidopsis thaliana, UniProt Q38830); chain MRGVSELEVGKSNLPAESELELGLGLSLGGGAWKERGRILTAKDFPSVGSKRSAESSSHQGASPPRSSQVVGWPPIGLHRMNSLVNNQAMKAARAEEGDGEKKVVKNDELKDVSMKVNPKVQGLGFVKVNMDGVGIGRKVDMRAHSSYENLAQTLEEMFFGMTGTTCREKVKPLRLLDGSSDFVLTYEDKEGDWMLVGDVPWRMFINSVKRLRIMGTSEASGLAPRRQEQKDRQRNNPV
IAA28 (Arabidopsis thaliana, UniProt Q9XFM0); baseline: out of 2 tests: 2
ARF19 948-1086 (Arabidopsis thaliana, UniProt Q8RYC8); baseline: out of 4 tests: 4
IAA26 (Arabidopsis thaliana, UniProt Q8LAL2); baseline: out of 4 tests: 1
ARF16 570-670 (Arabidopsis thaliana, UniProt Q93YR9); baseline: out of 4 tests: 0

Study 3 — target: CCND3, cyclin fold, Cln2 fusion (human); method: yeast growth competition, sequencing; medium: yeast; setting: weak parent motif; baseline: not given; reading: higher = stronger binding; endpoint: normalised enrichment score
Starting sequence: SCAPER docking peptide (human); SNARRSLNFGGST; partner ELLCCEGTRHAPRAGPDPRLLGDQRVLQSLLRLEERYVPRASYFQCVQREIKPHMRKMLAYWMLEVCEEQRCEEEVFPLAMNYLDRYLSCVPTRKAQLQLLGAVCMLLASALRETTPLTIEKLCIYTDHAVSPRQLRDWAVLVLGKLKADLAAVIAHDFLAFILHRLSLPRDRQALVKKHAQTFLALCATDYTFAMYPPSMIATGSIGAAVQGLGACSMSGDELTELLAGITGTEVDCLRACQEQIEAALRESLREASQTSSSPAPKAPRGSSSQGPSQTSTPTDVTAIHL
L7K: 0.128
F9A: 0.118
R5G: 0.0656
S12L: 0.21
L7C: 0.146
G10V: 0.0342
G10E: 0.065
G10C: 0.142

Other studies, line by line
LELIGNAES
binding (HLA class I histocompatibility antigen, A alpha chain, allele A*80:01 (Homo sapiens, UniProt P04439); peptide-MHC binding; peptide; concentration not given): inactive

Excerpt of the above (other studies, line by line):
LELIGNAES
binding (HLA class I histocompatibility antigen, A alpha chain, allele A*80:01 (Homo sapiens, UniProt P04439); peptide-MHC binding; peptide; concentration not given): inactive
